Assay results pooled from the literature.
Every numbered part comes from another study and shows a few of its results, in no order. Positions count from the first letter of the parent shown.
Chain of UniProt Q9C0B0 (30-357, looked up): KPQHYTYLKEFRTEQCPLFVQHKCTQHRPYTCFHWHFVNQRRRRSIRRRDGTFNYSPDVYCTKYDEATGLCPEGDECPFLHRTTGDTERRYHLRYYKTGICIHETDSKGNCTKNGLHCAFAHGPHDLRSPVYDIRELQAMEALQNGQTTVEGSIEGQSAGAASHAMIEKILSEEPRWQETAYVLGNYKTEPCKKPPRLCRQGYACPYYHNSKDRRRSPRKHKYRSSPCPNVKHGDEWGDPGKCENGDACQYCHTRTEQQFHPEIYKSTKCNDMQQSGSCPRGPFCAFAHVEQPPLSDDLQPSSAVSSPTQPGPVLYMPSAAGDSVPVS

Series 1 — target: CCNB1, cyclin fold, Cln2 fusion (human); method: yeast growth competition, sequencing; sample: yeast; notes: weak parent motif; relative to: not given; reading: higher = stronger binding
Parent: CDKN1C docking peptide (human); TSACRSLFGPVDH
`H13A` — result for “normalised enrichment score”: 0.374.
Under “normalised enrichment score”, `F8L` is recorded as 0.392.
Under “normalised enrichment score”, `D12A` is recorded as 0.674.
Under “normalised enrichment score”, `S2A` is recorded as 0.743.
`R5A` — result for “normalised enrichment score”: 0.0276.
`R5A L7A` — result for “normalised enrichment score”: -0.274.
`P10A` — result for “normalised enrichment score”: 0.324.
`F8A` — result for “normalised enrichment score”: 0.352.
`R5K` — result for “normalised enrichment score”: 0.36.

Series 2 — method: protein binding microarray; form: double-stranded DNA, one strand shown; sample: in vitro; tested at: not given; relative to: not given; reading: higher = stronger binding
Target: Histone acetyltransferase KAT6A, winged helix 2, GST fusion (KAT6A, Homo sapiens, UniProt Q92794, residues 85-181)
Notes: 8-mer, flanks averaged, mean of 2 arrays, mostly near background
Residues (chain): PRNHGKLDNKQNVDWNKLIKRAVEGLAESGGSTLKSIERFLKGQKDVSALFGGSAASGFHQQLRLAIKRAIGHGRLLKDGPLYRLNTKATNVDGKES
`ATGGAGTA` gave an E-score of 0.0292.
`CTCGCTTC` gave an E-score of 0.179.
The E-score of `GTGAGAGA` is reported as -0.101.
With `ACATACTA` the E-score was -0.0817.
With `GAGCCTAA` the E-score was 0.0927.
`AGCGTATA` gave an E-score of -0.0489.
`AGACTCGC` has an E-score of -0.0432.
`CAGTAAGC` has an E-score of 0.0631.
`GGAGTGAA` has an E-score of -0.0267.
`ATGTGGAC` gave an E-score of -0.0905.
The E-score of `AGTCCTTA` is reported as -0.0573.
With `AGCCCCCT` the E-score was 0.014.
The E-score of `ACTGTATC` is reported as -0.123.
`CGGATACC` gave an E-score of 0.0133.
With `TCGTGACA` the E-score was 0.033.
`AAGTGGGC` has an E-score of 0.187.
`ACATTCTA` has an E-score of -0.123.
With `CGCCCCAG` the E-score was 0.139.
With `GATGTACA` the E-score was -0.0833.
`CAGCCCAG` has an E-score of 0.0823.
`AATACCAA` gave an E-score of 0.0794.
For `CAGAAGCG`, the E-score was 0.0449.

Series 3 — method: RNA Bind-n-Seq; form: RNA; sample: in vitro; tested at: 365 nM; relative to: no-protein control; reading: higher = stronger binding
Target: RNA binding protein fox-1 homolog 2, RRM domain, GST-SBP tag (RBFOX2, Homo sapiens, UniProt O43251-10, residues 100-194)
Notes: natural RNA segment, single round, ends assumed
Construct (chain): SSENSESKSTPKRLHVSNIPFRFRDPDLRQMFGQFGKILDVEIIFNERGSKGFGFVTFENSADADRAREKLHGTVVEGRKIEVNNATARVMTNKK
`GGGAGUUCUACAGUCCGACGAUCUCCAAAGAGGAAUGAGGCCCAGGCCUUGGCUAUACGUACUUCCUGCCCCUGGCCAUCCUUGUUGGAGGCUUCUGGGUGGAACACUGGGUCUAGAACCUUCUUCCGUGGCUUGGAAUUCUCGGGUGCCAA` — result for “RBNS enrichment (R)”: 0.382.
`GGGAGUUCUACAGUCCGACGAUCGUAAUUUUUAUAAUUAUGAUGUAACUCUUAUCCUUCCUUAAAACAUUAAAAUAAACCCUUUAUGUGCAACUUGUGGCUGUGAACUUUGUGCUGCUGUGUUGAAUCUGCUGUGGAAUUCUCGGGUGCCAA` — result for “RBNS enrichment (R)”: 0.562.
For `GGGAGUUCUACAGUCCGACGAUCCUGAAUGAUUUCCAAAGAGAAAAAAAGUUUGCCAGAAGUUUGUCAAGUCAACCAAUGUAGAAAGCUUUGCUUAUGGUAAUAAAAAUGGCUCAUACUUAUAUAGCACUUACUGGAAUUCUCGGGUGCCAA`, “RBNS enrichment (R)” read 0.674.
`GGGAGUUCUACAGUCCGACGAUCCAGGUAGGCAGCAGACAGACAGAUGACAGAUAGAUCUCCAUGGUAUGUUUUCCAUUUUCUUUUGUCAGAGGUGAGCUUGAAUGUGAUUAUCUGUAAAUUUGCUCAAAUAAUGGAAUUCUCGGGUGCCAA`: “RBNS enrichment (R)” 6.66.
For `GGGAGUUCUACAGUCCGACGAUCUCUUACUCUGACACAUAGUAAUUGUGACAGCAGGGCUAAUGUUGAAGAAAAGUCAGAAGAAUCUUUAAGAUUUUAAAAAUGUCUUUAAAGUUUUUAAAAUGCUUACUACAUGGAAUUCUCGGGUGCCAA`, “RBNS enrichment (R)” read 0.474.
For `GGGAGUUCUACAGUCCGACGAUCACAGAGUGAUUGUAGUUUAAUACAGGAACACACAGGGCUGUGUAGCAUGAUACCAGGCCCAGGAGAUCAGUAAUUACAAAUUAAGGGUUAAAUCAGAGAUUAUUCAACAGUGGAAUUCUCGGGUGCCAA`, “RBNS enrichment (R)” read 14.
`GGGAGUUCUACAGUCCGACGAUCUGCCCAGAGAAAGCACUGCUUCUGUAUGUCUCUUGUGGUAUUGGAACAAUAAACCCGUACAACCUGCAGUUGUGGUCUCAGUCAUCUGUGGCUGCCUCGCUGGUGUGGGAUGGAAUUCUCGGGUGCCAA`: “RBNS enrichment (R)” 0.363.
Under “RBNS enrichment (R)”, `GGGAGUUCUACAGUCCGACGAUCUUCGCAGAUGUGUAUACUCAUGAUAGGUCAGAAAGUGUAUCCGCUACAAUAAAGUUCUGGUUCUAACAACUCCAGCCGGAGCGGGGUUUGUCUUCUCUCCUGUUUUGGUUUGGAAUUCUCGGGUGCCAA` is recorded as 0.266.
For `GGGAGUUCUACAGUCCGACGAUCUGAGAAACAUUGAAAGCAGGUUAAAUGUUUUGUAACUUUGAAAUACAAAGUCUAAUGCAUAAGCAGAACCGAAAAGCAGACCGACAAUUGGUUAACAAAUAAUUCUUUUUUGGAAUUCUCGGGUGCCAA`, “RBNS enrichment (R)” read 0.364.
For `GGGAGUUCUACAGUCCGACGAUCUGAAGAGAUGAGUGCUCAGAGCCCUCAUGCUGUUGAGGCUAAAGGGAGGCCUGGAACGGUGGGGCGUUUGACUGGAAUGGACCCCAGGGACUGUCCAGGUGCAGCCCCUCUGGAAUUCUCGGGUGCCAA`, “RBNS enrichment (R)” read 0.622.
`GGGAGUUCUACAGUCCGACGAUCGGAGCUCAGACUGCUGCUUUCAUAGGCAAAGUGUGCCCAUGGGGGCCAGUCAUGGGAACAUGUCAAAGCCAACAGGAAGCAGAACCUGUAGCUUUCUCUGGCAUUAGGGAUGGAAUUCUCGGGUGCCAA` — result for “RBNS enrichment (R)”: 0.302.
For `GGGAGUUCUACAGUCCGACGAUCGCAUGGGUGUGUCUGGCCUCAUUCUGUAUCAGUCCAGUGUGUUCCUGUCAUAGUUUGUGUCUCCCAGGCAGGCCAUGGUAGGGGCCUCGCAGGGGCCAUUGGGGAGCACAUGGAAUUCUCGGGUGCCAA`, “RBNS enrichment (R)” read 2.82.

Series 4 — method: protein-binding microarray; form: double-stranded DNA, one strand shown; sample: in vitro; tested at: not given; reading: higher = stronger binding
Target: Myc proto-oncogene protein, bHLH-zipper, MAX partner unstated (MYC, Homo sapiens, UniProt P01106, residues 368-449)
Chain of UniProt P01106 (368-449, looked up): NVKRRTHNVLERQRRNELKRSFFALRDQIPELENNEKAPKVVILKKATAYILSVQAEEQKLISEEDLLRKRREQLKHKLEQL
Notes: k-mer, scored over probes, only values ≥0.25
`CGCGGGGC` has an E-score of 0.316.
`CGCACGAC` gave an E-score of 0.255.
For `ACGAGCAT`, the E-score was 0.256.
With `GGCGCCAC` the E-score was 0.323.
The E-score of `GCGTGCAC` is reported as 0.414.
`ATCGTGCG` has an E-score of 0.326.
For `CACGTGCA`, the E-score was 0.496.
With `ATAACATG` the E-score was 0.28.
The E-score of `AACACGTT` is reported as 0.369.
`ACGTTGTC` has an E-score of 0.368.
For `CACGCCCC`, the E-score was 0.35.
`CACGCACC` gave an E-score of 0.364.
With `AGCATGCC` the E-score was 0.378.
For `ACGCGGCG`, the E-score was 0.366.
With `ATGTCATG` the E-score was 0.304.
`CAAGCACG` gave an E-score of 0.379.
For `ACAATGTG`, the E-score was 0.362.
The E-score of `GCCATGCC` is reported as 0.406.

Series 5 — method: protein-binding microarray; form: double-stranded DNA, one strand shown; sample: in vitro; tested at: 250 nM; notes: 60-bp whole probe; together with: salmon DNA 0.4 mg/ml; relative to: random background probes; reading: higher = stronger binding; shared flanks, not repeated: GCCTAGCAC … GTCTTGATTCGCTTGACGCTGCTG
Target: Interferon regulatory factor 7, full length, phosphomimetic (IRF7, Homo sapiens, UniProt Q92985, residues 1-503, S101K/S471D/S472D/S475D/S476D/S477D/S483D/S484D/S487D)
Residues (chain): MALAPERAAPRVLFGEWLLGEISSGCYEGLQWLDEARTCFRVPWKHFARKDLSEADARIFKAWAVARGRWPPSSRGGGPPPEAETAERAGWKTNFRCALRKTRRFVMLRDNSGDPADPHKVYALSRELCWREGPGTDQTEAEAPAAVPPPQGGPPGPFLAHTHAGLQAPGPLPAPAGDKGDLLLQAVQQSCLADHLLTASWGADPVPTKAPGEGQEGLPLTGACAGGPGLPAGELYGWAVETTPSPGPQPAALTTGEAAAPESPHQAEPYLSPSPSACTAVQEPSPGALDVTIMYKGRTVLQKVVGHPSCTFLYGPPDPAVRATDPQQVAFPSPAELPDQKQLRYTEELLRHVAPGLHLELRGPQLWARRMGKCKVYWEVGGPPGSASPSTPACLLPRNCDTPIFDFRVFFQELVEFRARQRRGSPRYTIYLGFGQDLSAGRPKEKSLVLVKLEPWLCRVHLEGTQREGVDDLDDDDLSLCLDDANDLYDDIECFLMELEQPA
The log fluorescence of `TTCGGTTTCGGGACTGGGTTAGTGCTA` is reported as 4.92 z-score.
For `TCAGCTCTCCGGGGTCTGACTGTGCTA`, the log fluorescence was -0.572 z-score.
`TGTGTCTGGAATTTTTAGAAGTGCTAG` has a log fluorescence of -0.413 z-score.
With `TAGAGGGAGTAAAGGAAAGAGTGCTAG` the log fluorescence was -0.607 z-score.
`GATGATCTCAGTTTCGAGACGTGCTAG` gave a log fluorescence of 3.64 z-score.
With `GACTTTTTAGATTTTTTTTCGTGCTAG` the log fluorescence was 0.925 z-score.
With `TCATGTTTGGTCCTGAAACTGTGCTAG` the log fluorescence was 0.457 z-score.
`TTAGGTATCCATATCCTTTAGTGCTAG` gave a log fluorescence of 0.553 z-score.
`GACGGACTGGGTTACGGGACGTGCTAG` has a log fluorescence of -0.286 z-score.
With `TACGAACTGGGGTTTCGAGACGTGCTA` the log fluorescence was 1.74 z-score.
`TTAGGACGGGGACTGGGTTAGTGCTAG` has a log fluorescence of 0.159 z-score.
`GACGGTATCGGACTCGGGACGTGCTAG` gave a log fluorescence of 0.0854 z-score.
With `GACGATATCAGTATCCAGACGTGCTAG` the log fluorescence was 0.142 z-score.
With `TTTACTCTCTACATGGGTATGTGCTAG` the log fluorescence was 0.462 z-score.
`TCATTTTTTTTTTTTTTACTGTGCTAG` has a log fluorescence of 1.15 z-score.
`GACGGACTGGGCATCGGGACGTGCTAG` gave a log fluorescence of -0.865 z-score.
The log fluorescence of `GACGGTTCCCGTTTCGGGACGTGCTAG` is reported as 4.55 z-score.
For `TTAGGACTAGACTATCGGTTAGTGCTA`, the log fluorescence was 0.0463 z-score.
With `AACGGTTTCCTTATCCTGACGTGCTAG` the log fluorescence was 3.09 z-score.
`TTAGGTCTCTGACTGGGTTAGTGCTAG` has a log fluorescence of -0.252 z-score.
`TTAGGTTTAGGTATCGGTTAGTGCTAG` gave a log fluorescence of 1.26 z-score.
With `TTAGATCTCAGTTTCGATCAGTGCTAG` the log fluorescence was 3.81 z-score.

Mixed results
`GGGAGUUCUACAGUCCGACGAUCAUUGGAUGCAGUGUAACACUAUCCAAGGCAGUGACUUCAGCUUUAUAUACAUAUAAAAUACCGUCCGUUUUAAAAUUAUUGACAUUUAUUUAAACUUUCCGAUUGGAUUGUUUGCUAUUGCAACAGAGGAUUGAGCAUCA` gave a bound/input enrichment of 0.58 ratio (RING finger protein unkempt homolog, zinc fingers 1-6, SBP tag (UNK, Homo sapiens, UniProt Q9C0B0, residues 30-357); RNA Bind-n-Seq; RNA, in vitro; 100 nM, RNA with constant flanks, ends assumed; relative to: input RNA pool, higher = stronger binding).

A few entries again (series 5):
With `TAGAGGGAGTAAAGGAAAGAGTGCTAG` the log fluorescence was -0.607 z-score.
`GATGATCTCAGTTTCGAGACGTGCTAG` gave a log fluorescence of 3.64 z-score.
With `GACTTTTTAGATTTTTTTTCGTGCTAG` the log fluorescence was 0.925 z-score.
With `TCATGTTTGGTCCTGAAACTGTGCTAG` the log fluorescence was 0.457 z-score.
`TTAGGTATCCATATCCTTTAGTGCTAG` gave a log fluorescence of 0.553 z-score.
`GACGGACTGGGTTACGGGACGTGCTAG` has a log fluorescence of -0.286 z-score.
With `TACGAACTGGGGTTTCGAGACGTGCTA` the log fluorescence was 1.74 z-score.
`TTAGGACGGGGACTGGGTTAGTGCTAG` has a log fluorescence of 0.159 z-score.
`GACGGTATCGGACTCGGGACGTGCTAG` gave a log fluorescence of 0.0854 z-score.
With `GACGATATCAGTATCCAGACGTGCTAG` the log fluorescence was 0.142 z-score.
